Results collected from several papers.
Numbered parts are unrelated; each lists some results of a single study.

Block 1
Target: Fragile X messenger ribonucleoprotein 1, C-terminal low-complexity region (Fmr1, Mus musculus, UniProt P35922)
Method: RNA Bind-n-Seq
Molecule type: RNA
Medium: in vitro
Concentration: 200 nM
Notes: whole 134-nt RNA, ends assumed
Together with: 150 mM KCl
Baseline: input library
Direction: higher = stronger binding
For `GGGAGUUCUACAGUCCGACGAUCCUCAAGUCCUGUGCUACACAUCGUAUGUACCGAAUCGGGGAGGAGGGGAGGGGAAAGUAUUAUGUUACGCCGUUCGGAUCUGCACUUCCAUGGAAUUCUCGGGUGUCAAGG`, the log2 enrichment was 1.05.
With `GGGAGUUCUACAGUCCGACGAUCUGGGAUGUGGAUUUUGUUUAUUUUUUUAGCUCAUUUCCAGGGGUGGGAAUUUUUUUUUAAUAUGUGUCAUGAAUAAAGUUGUUUUUGAAAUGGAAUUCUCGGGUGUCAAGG` the log2 enrichment was -0.525.
For `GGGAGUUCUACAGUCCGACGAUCAAGUCCUGUGCUACACAUCGUAUGUACCGAAUCGGGGCCCGGGGCCCGGGGCCCGGAAAGUAUUAUGUUACGCCGUUCGGAUCUGCACUUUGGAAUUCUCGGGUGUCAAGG`, the log2 enrichment was -1.08.
`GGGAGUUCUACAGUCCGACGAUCUGCGAUAUGAACGUUCACAAGCAAUGCGUCAUCAAUGUCCCCAGCCUCUGCGGAAUGGAUCACACUGAGAAGAGGGGGCGGAUUUACCUAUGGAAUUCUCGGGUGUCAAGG` gave a log2 enrichment of -1.15.
With `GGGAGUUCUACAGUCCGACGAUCUAACUUUAGAGGAGGAUCUGAUGGAUAUGGCAGUGGAUGUGGAUUUGGGGAUGGCUAUAAUGGGUAUGGAGGAGGACCUGGAGGUGGCAAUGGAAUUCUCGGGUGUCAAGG` the log2 enrichment was 0.258.
`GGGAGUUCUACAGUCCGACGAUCAAGUCCUGUGCUACACAUCGUAUGUACCGAAUCGGGGAAAAGGGGAAAAGGAAAAGGAAAGUAUUAUGUUACGCCGUUCGGAUCUGCACUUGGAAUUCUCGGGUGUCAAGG` gave a log2 enrichment of -0.127.
The log2 enrichment of `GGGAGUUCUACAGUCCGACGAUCUCCUGUGCUACACAUCGUAUGUACCGAAUCGGUUUUUUUGGAAAAAAAGGAAAAAAAGGAAAGUAUUAUGUUACGCCGUUCGGAUCUGCAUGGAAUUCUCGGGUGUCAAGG` is reported as -0.648.
For `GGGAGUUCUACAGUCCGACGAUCUUCCUCAAGUCCUGUGCUACACAUCGUAUGUACCGAAUCGGCGGGCGGCGGAAAGUAUUAUGUUACGCCGUUCGGAUCUGCACUUCCAGCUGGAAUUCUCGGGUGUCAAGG`, the log2 enrichment was 0.0223.
`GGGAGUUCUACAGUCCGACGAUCAGUCCUGUGCUACACAUCGUAUGUACCGAAUCGGGAAAAAGGAAAAAGGGGAAAAAGGAAAGUAUUAUGUUACGCCGUUCGGAUCUGCACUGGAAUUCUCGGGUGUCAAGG` has a log2 enrichment of -0.5.
`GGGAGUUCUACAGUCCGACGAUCUUCCUCAAGUCCUGUGCUACACAUCGUAUGUACCGAAUCGGCGGCGGGCGGAAAGUAUUAUGUUACGCCGUUCGGAUCUGCACUUCCAGCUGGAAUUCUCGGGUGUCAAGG` has a log2 enrichment of -0.0961.
With `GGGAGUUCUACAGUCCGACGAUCAUUUGUACACAGACAGGGAAACUGGCAAGCUGAAGGGAGAGGCAACGGUCUCUUUUGAUGACCCACCUUCAGCUAAAGCAGCUAUUGACUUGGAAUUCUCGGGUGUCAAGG` the log2 enrichment was -0.0132.
The log2 enrichment of `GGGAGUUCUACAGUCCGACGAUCAGUCCUGUGCUACACAUCGUAUGUACCGAAUCGGGAAAAAGGGAGGGAAAAAAAGGGAAAGUAUUAUGUUACGCCGUUCGGAUCUGCACUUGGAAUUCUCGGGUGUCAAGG` is reported as 0.2.
For `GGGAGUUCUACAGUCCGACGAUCUAACUUUAGAGGAGGAUCUGAUGGAUAUGGCAGUGGACGUGGAUUUGGGGAUGGCUAUAAUGGGUAUGCAGGAGGACCUGGAGGUGGCAAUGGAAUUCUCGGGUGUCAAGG`, the log2 enrichment was 0.237.
The log2 enrichment of `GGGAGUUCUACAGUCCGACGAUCUCAAGUCCUGUGCUACACAUCGUAUGUACCGAAUCGGUGGAAAAAAAGGAAAGGAAAGUAUUAUGUUACGCCGUUCGGAUCUGCACUUCCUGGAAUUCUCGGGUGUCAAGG` is reported as -0.54.

Block 2
Target: Interferon regulatory factor 5, full length, phosphomimetic (IRF5, Homo sapiens, UniProt Q13568-2, residues 1-514, K96S/S451D/S453D/S456D/S462D)
Method: protein-binding microarray
Molecule type: double-stranded DNA, one strand shown
Medium: in vitro
Concentration: 250 nM
Notes: 60-bp whole probe
Together with: salmon DNA 0.4 mg/ml
Baseline: random background probes
Direction: higher = stronger binding
All sequences stand within: GCCTAGCAC … GTCTTGATTCGCTTGACGCTGCTG
`GACGATTGCGGGACTGGAGACGTGCTA` has a log fluorescence of -0.608 z-score.
For `TTAGAATTCGGGTTTCGATTAGTGCTA`, the log fluorescence was 7.29 z-score.
The log fluorescence of `TTAGGTTTCCTCTCCCTTTAGTGCTAG` is reported as 0.525 z-score.
`GACGGTTTCGGGTATCGCGACGTGCTA` gave a log fluorescence of 7.78 z-score.
`TTGGCTTCCTCTTTCTCTGCGTGCTAG` gave a log fluorescence of 0.397 z-score.
With `TCAAATTTTAGTAACACACTGTGCTAG` the log fluorescence was 0.487 z-score.
`GTAGAACTGAGTATCGATTAGTGCTAG` gave a log fluorescence of 6.64 z-score.
With `GGCGATTTCGGGTATCGAGACGTGCTA` the log fluorescence was 5.01 z-score.
With `TCACGTGACCCTCTCAAACTGTGCTAG` the log fluorescence was -0.494 z-score.
`ATGTTTTTCATTTTTTTTCAGTGCTAG` has a log fluorescence of 2.34 z-score.
`GACGGTATCGACTATGGGGACGTGCTA` gave a log fluorescence of 2.26 z-score.
With `TTAGAACGGAGACTGGATTAGTGCTAG` the log fluorescence was -0.274 z-score.
The log fluorescence of `AGATATCTGCACTCTCATGTGTGCTAG` is reported as 0.372 z-score.
With `TTCAGTTTCTCTTTCCTTCTGTGCTAG` the log fluorescence was 5.51 z-score.
With `TCATTTTCATTTTATGACACTGTGCTA` the log fluorescence was 4.01 z-score.
With `GAAAATCCCACATTTGATAAAGTGCTA` the log fluorescence was 1.42 z-score.
For `TCACCTATCTCCTCACAGACTGTGCTA`, the log fluorescence was 0.276 z-score.
`GAGTCTTCTCCTCTAGGTTCGTGCTAG` gave a log fluorescence of -0.104 z-score.
`GACGGTATCGGACTAGGGACGTGCTAG` gave a log fluorescence of 1.16 z-score.
`TTAGGTATCCGGTTTCGGTTAGTGCTA` gave a log fluorescence of 8.34 z-score.
With `GACGGTCTCAGTATCGAGACGTGCTAG` the log fluorescence was 1.34 z-score.
For `TCACATTTTGGTTTTCAACTGTGCTAG`, the log fluorescence was 1.41 z-score.

Block 3
Target: Sal-like protein 4, full length isoform B (SALL4, Homo sapiens, UniProt Q9UJQ4-2, residues 1-616)
Method: universal PBM
Molecule type: double-stranded DNA, one strand shown
Medium: in vitro
Concentration: not given
Notes: 8-mer, flanks averaged, mean of replicates
Direction: higher = stronger binding
`AAGAAAAT` has an E-score of 0.244.
For `AGACAATG`, the E-score was 0.0761.
`CGACTAAA` has an E-score of 0.0197.
The E-score of `CTGTGGTA` is reported as 0.0147.
For `CAGTTTAA`, the E-score was 0.152.
With `GAGAAGAC` the E-score was -0.115.
`AGTATATC` gave an E-score of 0.132.
The E-score of `GCCGGTCC` is reported as -0.475.
`CAAAGAGC` gave an E-score of -0.176.
`AAAAACCG` gave an E-score of -0.0902.
The E-score of `CCCATCAA` is reported as 0.098.
`CGGGCCAA` has an E-score of -0.298.
`CCTCTCTC` has an E-score of -0.0327.
With `ACGGCTTC` the E-score was -0.137.
The E-score of `CCGGCATC` is reported as -0.283.
For `ATAGTCCA`, the E-score was 0.108.

Block 4
Target: RNA binding protein fox-1 homolog 2, RRM domain, GST-SBP tag (RBFOX2, Homo sapiens, UniProt O43251-10, residues 100-194)
Method: RNA Bind-n-Seq
Molecule type: RNA
Medium: in vitro
Concentration: 365 nM
Notes: natural RNA segment, single round, ends assumed
Baseline: no-protein control
Direction: higher = stronger binding
Residues (chain): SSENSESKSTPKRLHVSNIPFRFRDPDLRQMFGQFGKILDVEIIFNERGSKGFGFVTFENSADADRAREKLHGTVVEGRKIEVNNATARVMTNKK
For `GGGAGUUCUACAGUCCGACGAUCUGGUGAAGCGCUCUCUGUCCUGGCUGGUUUUUUGUCACCGCAAUCCACUGCCAAAGGCAGAAUUUAAACUAGGGGCUGAGGGAUAGCUCCGAGUAAUGUCCAAUGCUGGGUGGAAUUCUCGGGUGCCAA`, “RBNS enrichment (R)” read 0.771.
For `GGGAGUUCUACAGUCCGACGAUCAAGGUCGAGACUGGAGAAGCACACUUCCUUCUUGGGCAGCUUCCCACCAUGGCACAGGUGCUAUGGCGGGAUGGUCAUCUCACUCCCUAGCUUCCUGUGGGUCAGGAGUGUGGAAUUCUCGGGUGCCAA`, “RBNS enrichment (R)” read 0.166.
Under “RBNS enrichment (R)”, `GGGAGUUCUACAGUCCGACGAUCUCAUUUUUCAUUCUCCUCCCUCAAGGUAAUUUCUGGACAGAAACUCACACGACUAUUUACAUCAAAUCAGAUAUUAACAAGUGAAUGCUUGAGUUGCCUUGUAGAGCUACUGGAAUUCUCGGGUGCCAA` is recorded as 0.583.
`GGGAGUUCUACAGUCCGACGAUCGUGGAGACCCUUAAAUCCACACUGUGCUCCAAAACUCCCUCUGCUGAUACUCCUUGGAGACACCCUCUUUGGCCCUCACUACUUGACCAGACUGGUACUUGAGUCCUUCUUGGAAUUCUCGGGUGCCAA` — result for “RBNS enrichment (R)”: 0.636.
Under “RBNS enrichment (R)”, `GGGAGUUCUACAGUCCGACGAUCUCUUUUCUAAAUGAAACUCCAUGUAGCAACCAGGACGAAGUUGAGAAGGAAAACGCCAAAUGCUUUGGUUAUUAGAGUUUAAUAGGUAAGCUCUGUUACACUAGGUGUUAUGGAAUUCUCGGGUGCCAA` is recorded as 0.518.
Under “RBNS enrichment (R)”, `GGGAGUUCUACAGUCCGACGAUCUGUUUUGCACAGACGUGGGCCUGGGCCUUCUCAGCAGCCGCCUUCUAGUUGGGGGCUAGUCGCUGAUCUGCCGGCUCCCGCCCAGCCUGUGUGGAAAGGAGGCCCACGGGUGGAAUUCUCGGGUGCCAA` is recorded as 0.208.
For `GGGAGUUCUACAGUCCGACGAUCUAGACAUUCCGUAAGAGAAUCCAGAAUGAUAGCAGGAUCAGGAAAGAAAUGGAGCCAAAUCUGCUCUAAGGUGAAUAGAGACUUAUUUUUCUUUAUUAAAGUAUUCUUGUUGGAAUUCUCGGGUGCCAA`, “RBNS enrichment (R)” read 1.66.
`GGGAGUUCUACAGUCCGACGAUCCAAGCUUAACUUCAUGUAAAGUCUUCACUGCCAGUGGGAACAUCUUUGACACAACAAGACACUCCAAUUGUGAUUUGAGUUGAGGAUCUCUGCCUGCCUUCCUGCCGUCCUGGAAUUCUCGGGUGCCAA`: “RBNS enrichment (R)” 0.258.
For `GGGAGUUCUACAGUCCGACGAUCUGGAGGGUGGGGGGAGCUCAGUGGCAGGGAAUCAGCGGUCCGUGGGGUCGUGGGGACGGGAACAUGUGCCCGACCGCUCCAUCCCCUCCUCCUCCUUAGGAUGCAUAACCUGGAAUUCUCGGGUGCCAA`, “RBNS enrichment (R)” read 0.845.
`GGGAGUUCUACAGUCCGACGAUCUACUUCUUGGUGACAUAAUAUAACCUUUGAAGUUAAUAUGAAGUGAUGUUUGCUCCAUAAACUCCACAGUCACUGUUUUCACAUUAAACAUGAAAGCAAAGCAAAACAAAUGGAAUUCUCGGGUGCCAA` — result for “RBNS enrichment (R)”: 0.288.
Under “RBNS enrichment (R)”, `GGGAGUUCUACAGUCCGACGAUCAGCCAAGUCAUGAAUCCAGCCUAAAAGCUUGUCCCGGAAAACCAUGGUGCCAUCUGACUUUGAGAGCAUAGAAGUCUUUCCCCAGUCUUCUUCAGGGUCUCCCCCCAACCUGGAAUUCUCGGGUGCCAA` is recorded as 0.435.
`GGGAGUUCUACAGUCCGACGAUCGGUACAUUUUUGCACUGAAACCUAAAGAUGUUUUAAAAACACUUUUCACAGAAAUAGUCCUUGUCAUUACAUUGUUCACUCAUGUGUUUGUACAUUUUUGUAUGUUAAUUUGGAAUUCUCGGGUGCCAA`: “RBNS enrichment (R)” 0.597.

For quick reference, copied from above (block 2):
`GACGGTATCGACTATGGGGACGTGCTA` gave a log fluorescence of 2.26 z-score.
With `TTAGAACGGAGACTGGATTAGTGCTAG` the log fluorescence was -0.274 z-score.
The log fluorescence of `AGATATCTGCACTCTCATGTGTGCTAG` is reported as 0.372 z-score.
With `TTCAGTTTCTCTTTCCTTCTGTGCTAG` the log fluorescence was 5.51 z-score.
With `TCATTTTCATTTTATGACACTGTGCTA` the log fluorescence was 4.01 z-score.
With `GAAAATCCCACATTTGATAAAGTGCTA` the log fluorescence was 1.42 z-score.
For `TCACCTATCTCCTCACAGACTGTGCTA`, the log fluorescence was 0.276 z-score.
`GAGTCTTCTCCTCTAGGTTCGTGCTAG` gave a log fluorescence of -0.104 z-score.
`GACGGTATCGGACTAGGGACGTGCTAG` gave a log fluorescence of 1.16 z-score.
`TTAGGTATCCGGTTTCGGTTAGTGCTA` gave a log fluorescence of 8.34 z-score.
